{"data": "Assay results gathered from unrelated publications", "note": "Parts stem from different laboratories: compare values within a part only.", "sequence of UniProt Q9Y6M4 (whole entry, looked up)": "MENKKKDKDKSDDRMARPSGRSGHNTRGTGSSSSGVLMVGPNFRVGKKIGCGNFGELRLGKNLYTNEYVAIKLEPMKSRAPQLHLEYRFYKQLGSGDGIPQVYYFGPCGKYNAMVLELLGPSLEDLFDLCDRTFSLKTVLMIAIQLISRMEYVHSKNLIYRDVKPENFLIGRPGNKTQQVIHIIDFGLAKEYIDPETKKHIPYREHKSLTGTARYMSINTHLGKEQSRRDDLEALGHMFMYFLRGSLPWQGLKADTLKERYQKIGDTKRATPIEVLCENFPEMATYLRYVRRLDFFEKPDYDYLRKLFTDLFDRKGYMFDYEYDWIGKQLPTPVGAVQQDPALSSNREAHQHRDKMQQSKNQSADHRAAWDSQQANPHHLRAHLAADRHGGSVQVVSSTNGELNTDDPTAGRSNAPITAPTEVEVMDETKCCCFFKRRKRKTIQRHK", "sequence of UniProt Q8IVW4 (whole entry, looked up)": "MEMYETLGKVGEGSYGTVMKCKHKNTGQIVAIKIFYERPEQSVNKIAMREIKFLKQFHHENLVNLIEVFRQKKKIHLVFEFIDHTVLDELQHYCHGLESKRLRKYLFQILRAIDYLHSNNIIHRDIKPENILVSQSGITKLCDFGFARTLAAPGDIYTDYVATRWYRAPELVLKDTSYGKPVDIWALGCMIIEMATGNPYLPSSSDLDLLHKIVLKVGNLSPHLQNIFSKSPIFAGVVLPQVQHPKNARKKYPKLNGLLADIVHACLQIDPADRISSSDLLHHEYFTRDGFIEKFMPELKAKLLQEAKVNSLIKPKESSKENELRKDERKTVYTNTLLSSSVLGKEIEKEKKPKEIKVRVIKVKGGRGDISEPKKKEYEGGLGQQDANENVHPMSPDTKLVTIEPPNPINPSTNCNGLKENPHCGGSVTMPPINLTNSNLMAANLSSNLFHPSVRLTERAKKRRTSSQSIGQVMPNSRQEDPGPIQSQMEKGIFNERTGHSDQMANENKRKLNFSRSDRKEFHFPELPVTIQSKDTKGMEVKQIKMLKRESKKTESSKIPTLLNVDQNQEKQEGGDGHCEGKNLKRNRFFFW", "sequence of UniProt Q07002 (whole entry, looked up)": "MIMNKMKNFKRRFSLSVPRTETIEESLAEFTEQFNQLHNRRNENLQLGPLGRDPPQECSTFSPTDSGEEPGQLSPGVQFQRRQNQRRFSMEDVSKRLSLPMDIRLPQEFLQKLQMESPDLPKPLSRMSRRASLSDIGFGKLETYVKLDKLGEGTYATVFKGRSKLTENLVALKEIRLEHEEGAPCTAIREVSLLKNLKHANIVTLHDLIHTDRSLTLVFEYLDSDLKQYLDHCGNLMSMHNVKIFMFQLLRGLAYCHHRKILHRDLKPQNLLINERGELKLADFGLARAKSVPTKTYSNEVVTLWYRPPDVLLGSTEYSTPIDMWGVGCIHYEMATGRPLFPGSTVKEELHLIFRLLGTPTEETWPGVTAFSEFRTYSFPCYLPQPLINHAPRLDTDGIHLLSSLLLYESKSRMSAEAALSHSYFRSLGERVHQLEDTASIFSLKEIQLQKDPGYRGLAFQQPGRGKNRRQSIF", "sequence of UniProt O60331 (whole entry, looked up)": "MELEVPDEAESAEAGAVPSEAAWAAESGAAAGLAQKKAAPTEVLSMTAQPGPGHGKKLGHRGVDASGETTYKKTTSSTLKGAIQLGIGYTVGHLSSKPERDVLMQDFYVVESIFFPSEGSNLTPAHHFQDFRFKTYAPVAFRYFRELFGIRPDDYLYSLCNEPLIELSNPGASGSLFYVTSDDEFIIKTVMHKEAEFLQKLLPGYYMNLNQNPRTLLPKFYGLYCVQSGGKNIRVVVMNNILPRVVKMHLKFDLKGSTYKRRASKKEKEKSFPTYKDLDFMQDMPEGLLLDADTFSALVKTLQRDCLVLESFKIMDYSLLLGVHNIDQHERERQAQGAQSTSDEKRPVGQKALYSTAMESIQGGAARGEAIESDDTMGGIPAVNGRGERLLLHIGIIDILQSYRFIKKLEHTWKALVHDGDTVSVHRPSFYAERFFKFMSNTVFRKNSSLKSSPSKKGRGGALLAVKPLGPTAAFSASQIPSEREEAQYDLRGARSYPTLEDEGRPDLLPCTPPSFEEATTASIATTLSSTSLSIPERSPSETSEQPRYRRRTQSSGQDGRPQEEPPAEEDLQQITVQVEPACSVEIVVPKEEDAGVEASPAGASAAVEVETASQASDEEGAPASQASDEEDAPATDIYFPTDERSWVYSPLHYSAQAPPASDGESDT", "sequence of UniProt Q6DT37 (whole entry, looked up)": "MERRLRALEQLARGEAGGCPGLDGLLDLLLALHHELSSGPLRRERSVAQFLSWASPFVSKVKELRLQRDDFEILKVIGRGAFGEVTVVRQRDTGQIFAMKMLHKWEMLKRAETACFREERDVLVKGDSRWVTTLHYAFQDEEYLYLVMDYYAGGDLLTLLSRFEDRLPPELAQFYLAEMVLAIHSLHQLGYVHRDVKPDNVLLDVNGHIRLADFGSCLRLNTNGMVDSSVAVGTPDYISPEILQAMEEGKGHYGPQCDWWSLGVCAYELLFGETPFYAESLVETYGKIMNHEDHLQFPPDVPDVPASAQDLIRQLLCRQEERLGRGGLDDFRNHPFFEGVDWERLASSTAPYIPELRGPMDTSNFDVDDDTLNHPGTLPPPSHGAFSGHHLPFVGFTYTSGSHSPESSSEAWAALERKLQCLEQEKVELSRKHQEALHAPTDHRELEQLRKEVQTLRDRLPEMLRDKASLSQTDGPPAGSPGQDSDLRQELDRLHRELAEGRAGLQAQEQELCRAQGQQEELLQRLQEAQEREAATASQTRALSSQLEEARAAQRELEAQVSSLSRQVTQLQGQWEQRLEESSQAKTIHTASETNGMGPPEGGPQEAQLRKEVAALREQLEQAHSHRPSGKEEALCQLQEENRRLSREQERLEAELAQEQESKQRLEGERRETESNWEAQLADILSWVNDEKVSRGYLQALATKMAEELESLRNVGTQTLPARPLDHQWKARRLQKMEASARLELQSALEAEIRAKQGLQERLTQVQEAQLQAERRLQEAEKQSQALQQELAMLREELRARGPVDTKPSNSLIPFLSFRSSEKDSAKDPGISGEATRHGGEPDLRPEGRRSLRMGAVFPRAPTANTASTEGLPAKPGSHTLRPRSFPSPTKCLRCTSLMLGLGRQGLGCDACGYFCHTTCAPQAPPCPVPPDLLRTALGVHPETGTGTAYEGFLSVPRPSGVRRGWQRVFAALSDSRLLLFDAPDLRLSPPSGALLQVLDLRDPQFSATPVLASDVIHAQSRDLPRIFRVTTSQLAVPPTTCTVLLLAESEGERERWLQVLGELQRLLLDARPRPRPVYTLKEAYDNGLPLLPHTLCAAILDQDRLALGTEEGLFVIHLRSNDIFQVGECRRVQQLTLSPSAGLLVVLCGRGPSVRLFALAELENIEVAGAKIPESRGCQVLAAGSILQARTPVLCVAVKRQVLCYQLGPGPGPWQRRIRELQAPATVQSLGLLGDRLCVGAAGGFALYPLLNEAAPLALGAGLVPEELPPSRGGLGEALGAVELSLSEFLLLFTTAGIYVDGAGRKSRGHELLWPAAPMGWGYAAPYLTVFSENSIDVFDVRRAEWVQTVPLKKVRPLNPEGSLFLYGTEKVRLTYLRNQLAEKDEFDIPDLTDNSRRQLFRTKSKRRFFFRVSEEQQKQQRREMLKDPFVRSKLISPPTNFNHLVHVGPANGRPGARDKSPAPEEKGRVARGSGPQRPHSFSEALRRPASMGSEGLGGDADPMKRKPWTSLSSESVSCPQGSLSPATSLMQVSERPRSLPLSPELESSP"}
{"data": "Study 1", "Structure (SMILES)": "COc1ccc2cc(OCC3(C(=O)O)CN(C(=O)c4ccc(F)cc4)C3)ccc2c1", "concentration": "1 µM"}
{"target": "NUAK1 (Homo sapiens, UniProt O60285)", "test": "cell-free assay, competition with immobilised ligand", "remaining binding [%]": 94}
{"target": "PIP5K1C (Homo sapiens, UniProt O60331)", "test": "cell-free assay, competition with immobilised ligand", "remaining binding [%]": 84}
{"target": "FLT3 (Homo sapiens, UniProt P36888, F691L/ITD)", "test": "cell-free assay, competition with immobilised ligand", "remaining binding [%]": 100}
{"target": "CDKL3 (Homo sapiens, UniProt Q8IVW4)", "test": "cell-free assay, competition with immobilised ligand", "remaining binding [%]": 89}
{"target": "LRRK2 (Homo sapiens, UniProt Q5S007)", "test": "cell-free assay, competition with immobilised ligand", "remaining binding [%]": 100}
{"target": "CSNK1G3 (Homo sapiens, UniProt Q9Y6M4)", "test": "cell-free assay, competition with immobilised ligand", "remaining binding [%]": 100}
{"target": "CDK18 (Homo sapiens, UniProt Q07002)", "test": "cell-free assay, competition with immobilised ligand", "remaining binding [%]": 98}
{"target": "MYLK3 (Homo sapiens, UniProt Q32MK0)", "test": "cell-free assay, competition with immobilised ligand", "remaining binding [%]": 100}
{"target": "CDC42BPG (Homo sapiens, UniProt Q6DT37)", "test": "competition binding", "remaining binding [%]": 91}
{"data": "Study 2", "organism": "Plasmodium berghei", "action": "inhibitor", "cell line": "Huh-7", "strain": "GFP-expressing, liver stage", "concentration": "10 µM", "time": "24 h", "relative to": "untreated control"}
{"Compound": "Cn1c(=O)c2nc[nH]c2n(C)c1=O", "infection rate [%]": 106}
{"Compound": "Nc1ccc(S(=O)(=O)Nc2nccs2)cc1", "infection rate [%]": 96.4}
{"Compound": "CS(=O)(=O)c1ccc(C2=C(c3ccccc3)C(=O)OC2)cc1", "infection rate [%]": 113}
{"Compound": "CS(=O)(=O)c1ccc([C@@H](O)[C@@H](CO)NC(=O)C(Cl)Cl)cc1", "infection rate [%]": 90}
{"Compound": "CN(C(=O)CN(CCO)CC(=O)N(C)C(C)(C)Cc1ccccc1)C(C)(C)Cc1ccccc1", "infection rate [%]": 45.3}
{"Compound": "CC(=O)OCC(COC(C)=O)OC(C)=O", "infection rate [%]": 95.6}
{"data": "Study 3", "target": "Cyclin-dependent kinase 2, with cyclin E (CDK2, Homo sapiens, UniProt P24941)", "observed": "enzyme activity", "action": "inhibitor", "concentration": "0.5 µM", "relative to": "control"}
{"SMILES": "C#Cc1cccc(Nc2ncnc3cc(OCCOC)c(OCCOC)cc23)c1", "remaining activity [%]": 96.5}
{"SMILES": "Cc1nc(-c2ccccc2)c(-c2ccncc2)o1", "remaining activity [%]": 93.4}
{"SMILES": "OCC(O)CCON=C1C(c2c(O)[nH]c3ccccc23)=Nc2ccccc21 (stereo not drawn)", "remaining activity [%]": 23.1}
{"SMILES": "O=C1NC(=O)C(c2cn(CCCn3ccnc3)c3ccccc23)=C1Nc1ccccc1", "remaining activity [%]": 81.8}
{"SMILES": "CN(C)c1ccc(C=C2C(=O)Nc3ccccc32)cc1", "remaining activity [%]": 97.1}
{"SMILES": "COc1cc2nccc(Oc3ccc(NC(=S)NC(=O)c4ccccc4C)cc3)c2cc1OC", "remaining activity [%]": 96.7}
{"SMILES": "NCCNc1ncc(C(N)=O)c(Nc2cccc(C(F)(F)F)c2)n1", "remaining activity [%]": 89}
{"SMILES": "O=C1NC(=O)C(c2cn(CCCO)c3ncccc23)=C1c1cnccn1", "remaining activity [%]": 85.1}
{"SMILES": "Nc1[nH]nc2nc3ccccc3nc12", "remaining activity [%]": 85.5}
{"SMILES": "COc1ccc(C(=O)Nc2sc3c(c2C(N)=O)CCCC3)cc1OC", "remaining activity [%]": 94.6}
{"SMILES": "COc1cc2ncnc(Nc3ccc(Oc4ccccc4)cc3)c2cc1OC", "remaining activity [%]": 87.8}
{"SMILES": "O=C(O)c1ccc2c3c1cccc3c(=O)n1c3ccccc3nc21", "remaining activity [%]": 90.9}
{"SMILES": "CCOC(=O)c1c(C)[nH]c(/C=C2\\C(=O)Nc3ccccc32)c1C", "remaining activity [%]": 95.6}
{"SMILES": "Cc1ccc(NC(=O)c2ccc(CN3CCN(C)CC3)cc2)cc1Nc1nc(-c2cccnc2)cs1", "remaining activity [%]": 95}
{"data": "Single results of other studies"}
{"SMILES": "COc1ccc(-c2c(Nc3ccccn3)[nH]c3c(C4=CCCCC4)c(-c4ccccc4)nn3c2=O)cc1", "test": "immunohistochemistry", "system": "human, tumour biopsy", "setting": "100 mg per day, 2688 h", "scale": "relative to: before treatment", "endpoint": "SDMA staining reduction", "result": "81%"}
{"note": "Repeated from above (study 3):"}
{"SMILES": "Cc1ccc(NC(=O)c2ccc(CN3CCN(C)CC3)cc2)cc1Nc1nc(-c2cccnc2)cs1", "remaining activity [%]": 95}
{"SMILES": "COc1cc2nccc(Oc3ccc(NC(=S)NC(=O)c4ccccc4C)cc3)c2cc1OC", "remaining activity [%]": 96.7}
{"SMILES": "Cc1nc(-c2ccccc2)c(-c2ccncc2)o1", "remaining activity [%]": 93.4}
{"SMILES": "NCCNc1ncc(C(N)=O)c(Nc2cccc(C(F)(F)F)c2)n1", "remaining activity [%]": 89}
{"SMILES": "COc1ccc(C(=O)Nc2sc3c(c2C(N)=O)CCCC3)cc1OC", "remaining activity [%]": 94.6}
